Results gathered from unrelated publications.
Numbered parts are unrelated; each lists some results of a single study. Substitutions count along the parent as printed.

Sample 1
Target: ATP-dependent RNA helicase DDX3X, helicase core (DDX3X, Homo sapiens, UniProt O00571, residues 132-607)
Chain of UniProt O00571 (132-607, looked up): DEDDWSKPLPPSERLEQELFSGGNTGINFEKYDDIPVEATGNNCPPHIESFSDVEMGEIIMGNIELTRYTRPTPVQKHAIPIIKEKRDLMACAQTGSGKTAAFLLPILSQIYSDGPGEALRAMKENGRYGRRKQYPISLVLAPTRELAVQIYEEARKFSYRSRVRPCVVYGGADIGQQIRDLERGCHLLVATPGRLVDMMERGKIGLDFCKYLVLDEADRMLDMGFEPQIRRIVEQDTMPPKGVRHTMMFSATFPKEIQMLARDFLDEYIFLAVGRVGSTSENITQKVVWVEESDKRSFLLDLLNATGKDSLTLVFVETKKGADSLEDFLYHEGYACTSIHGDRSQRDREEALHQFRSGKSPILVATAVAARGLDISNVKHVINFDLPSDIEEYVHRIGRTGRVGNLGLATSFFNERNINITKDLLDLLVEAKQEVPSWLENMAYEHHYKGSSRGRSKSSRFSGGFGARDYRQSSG
Technique: RNA Bind-n-Seq
Molecule type: RNA
Sample: in vitro
Tested at: not given
Setting: 4-mer, random 30-nt RNA, single round
With: RocA, ADP, phosphate
Reference: input library
Direction: higher = stronger binding
| Strand | 4-mer enrichment [fold] |
| --- | --- |
| GCCC | 0.795 |
| AUCG | 0.892 |
| GCGC | 0.803 |
| UUGA | 1.18 |
| CGAA | 0.971 |
| ACGA | 1.11 |
| ACGG | 0.849 |
| CCUU | 0.72 |
| UUAG | 1.02 |
| CUCG | 0.681 |
| GGCU | 0.797 |
| GCAA | 0.848 |
| UAUG | 1.02 |
| UCAU | 0.72 |
| AAAU | 1.04 |
| CCCU | 0.834 |
| GAAG | 1.59 |
| AUUA | 0.92 |
| UCUU | 0.778 |
| GCAG | 0.913 |
| GAAU | 1.33 |
| UGAC | 0.717 |
| UGCC | 0.697 |

Sample 2
Target: Sal-like protein 4, full length isoform A (SALL4, Homo sapiens, UniProt Q9UJQ4, residues 1-1053)
Chain of UniProt Q9UJQ4 (whole entry, looked up): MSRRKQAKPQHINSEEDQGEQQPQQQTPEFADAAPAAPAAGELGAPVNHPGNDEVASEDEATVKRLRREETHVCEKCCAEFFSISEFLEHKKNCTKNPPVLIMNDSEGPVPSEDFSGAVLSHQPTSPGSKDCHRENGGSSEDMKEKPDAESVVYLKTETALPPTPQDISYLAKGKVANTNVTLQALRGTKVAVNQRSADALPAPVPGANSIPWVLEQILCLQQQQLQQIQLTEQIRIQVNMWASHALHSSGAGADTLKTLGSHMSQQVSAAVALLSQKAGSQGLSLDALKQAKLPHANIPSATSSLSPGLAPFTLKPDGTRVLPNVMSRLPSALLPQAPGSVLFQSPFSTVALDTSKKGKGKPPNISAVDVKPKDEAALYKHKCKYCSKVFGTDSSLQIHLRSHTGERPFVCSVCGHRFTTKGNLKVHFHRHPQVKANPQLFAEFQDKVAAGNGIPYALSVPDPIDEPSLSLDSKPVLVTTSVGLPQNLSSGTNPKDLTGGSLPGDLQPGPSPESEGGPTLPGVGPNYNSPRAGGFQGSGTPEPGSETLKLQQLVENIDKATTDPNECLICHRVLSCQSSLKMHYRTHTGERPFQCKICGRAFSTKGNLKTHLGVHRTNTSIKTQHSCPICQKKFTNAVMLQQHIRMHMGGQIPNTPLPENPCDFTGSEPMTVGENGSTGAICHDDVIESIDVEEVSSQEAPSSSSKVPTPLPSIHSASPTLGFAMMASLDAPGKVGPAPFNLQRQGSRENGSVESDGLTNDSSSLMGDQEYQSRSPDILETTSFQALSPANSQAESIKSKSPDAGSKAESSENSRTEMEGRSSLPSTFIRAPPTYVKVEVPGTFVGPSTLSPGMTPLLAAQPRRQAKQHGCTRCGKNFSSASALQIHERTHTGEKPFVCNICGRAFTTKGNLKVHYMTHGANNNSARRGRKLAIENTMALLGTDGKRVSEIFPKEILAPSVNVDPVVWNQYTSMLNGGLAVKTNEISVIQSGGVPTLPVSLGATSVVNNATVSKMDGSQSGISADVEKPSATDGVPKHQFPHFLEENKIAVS
Technique: universal PBM
Molecule type: double-stranded DNA, one strand shown
Sample: in vitro
Tested at: 600 nM
Setting: 8-mer, flanks averaged, mean of replicates
Direction: higher = stronger binding
| Strand | E-score |
| --- | --- |
| ACCGAAGG | -0.0997 |
| GCGCTGTA | -0.0557 |
| ATGGACAG | -0.00581 |
| AGATGCAA | 0.0907 |
| AGTGCACG | -0.203 |
| GGCCAGTA | -0.0821 |
| TATCCAGA | 0.0147 |
| GTAAGCGA | 0.0654 |
| GCTAGCGA | -0.156 |
| AGTCGACG | -0.0344 |
| CCCACGAG | -0.392 |
| ATAATCAC | 0.271 |
| TCAATAGA | 0.167 |
| ATGCGCCC | -0.22 |
| AGGACTTA | 0.051 |
| ACACAATC | 0.0625 |
| CCAATCCC | -0.184 |
| GTATAAAA | 0.331 |
| ACGCCCGG | -0.31 |
| CCACGCCG | -0.28 |
| CGGGTCTA | -0.157 |
| CAAGCAGA | 0.00187 |
| CCAAACTA | 0.0906 |
| GCGAGATA | 0.116 |
| CCAGGGGC | -0.425 |

Sample 3
Target: Phosphate system positive regulatory protein PHO4, full length, GST-tagged (PHO4, Saccharomyces cerevisiae, UniProt P07270, residues 1-312)
Technique: competition protein-binding microarray
Molecule type: double-stranded DNA, one strand shown
Sample: in vitro
Tested at: 2 µM
Setting: whole 60-bp probe, lowest competitor level
With: Cbf1 competitor, 0.05 µM
Direction: higher = stronger binding
Construct (chain): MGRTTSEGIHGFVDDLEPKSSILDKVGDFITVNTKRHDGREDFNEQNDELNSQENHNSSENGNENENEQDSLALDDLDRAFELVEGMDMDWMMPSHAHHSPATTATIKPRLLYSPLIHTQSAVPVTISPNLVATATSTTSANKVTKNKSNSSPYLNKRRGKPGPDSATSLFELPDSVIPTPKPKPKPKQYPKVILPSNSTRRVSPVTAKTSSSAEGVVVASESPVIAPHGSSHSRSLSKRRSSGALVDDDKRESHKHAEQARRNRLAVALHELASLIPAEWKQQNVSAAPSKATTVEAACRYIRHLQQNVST
| Strand | fluorescence intensity |
| --- | --- |
| AAAGCGGTAATTTTTCACGTGAAATCAAATATCTATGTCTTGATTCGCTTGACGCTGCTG | 8800 a.u. |
| TGCGCAACAACTTGCAGGGTGGGTGTATGTCTAGAAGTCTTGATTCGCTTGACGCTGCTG | 5060 a.u. |
| AAAGCGGTAATTTGATTCGTGGGTGCAGATATCTATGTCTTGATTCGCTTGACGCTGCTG | 6280 a.u. |
| TGATTGTCAGTCGTTCGCGTGGGTACAACTTTGGTCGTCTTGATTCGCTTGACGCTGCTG | 7690 a.u. |
| AAATTACTAAGTTGCTTGGTGGGTGACGCCGTATGAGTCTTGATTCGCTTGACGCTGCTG | 3870 a.u. |
| AGATACAAAGTGTCCCACGGGCCAGTTTTGGCTTTAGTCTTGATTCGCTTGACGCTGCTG | 8430 a.u. |
| ACTTGGTTAAAGACTCACGTGTAGTTTACGGTGGGGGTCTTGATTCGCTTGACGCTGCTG | 13900 a.u. |
| CGGGGTTAAGTTTGCTTTGTGGGTGGCTTGCAGCAGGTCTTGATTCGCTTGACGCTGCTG | 4560 a.u. |
| TGTTTCTTCTGAAAGCACGTGTGAAAAGTTTTCCTGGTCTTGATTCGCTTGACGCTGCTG | 19900 a.u. |
| TCTCTTCTTCATCACCACGATGTATCTTTTGTTTTGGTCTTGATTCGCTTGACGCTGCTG | 11200 a.u. |
| CTTCTGTAAATTTGACATGTGGGTGGACGCGCCCCGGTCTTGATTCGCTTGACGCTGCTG | 10100 a.u. |
| CTTTCCCGATCTTGTCACTCGACTTTAGCACATTTGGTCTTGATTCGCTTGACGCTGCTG | 3980 a.u. |
| GGGGATGTTATGAACCATGTGGCTACTTTTATAAGCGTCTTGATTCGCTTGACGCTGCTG | 10500 a.u. |
| CACTTGAAAACGGTGAACGTGGTCGTATACCTTCGAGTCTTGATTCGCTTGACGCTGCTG | 11200 a.u. |
| GCAGCGGCGGCCTTTCTCGTGATGGTGGCGCTCGGAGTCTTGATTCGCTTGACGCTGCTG | 3850 a.u. |
| AAGGGCCCTTGCCTACACGTGAATATGTCTATTTTAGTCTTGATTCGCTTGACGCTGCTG | 11700 a.u. |
| TTGAAAGGCATCGGCCACGTCGTCCCCTTCTCTAACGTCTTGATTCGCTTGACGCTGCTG | 5520 a.u. |
| GGGAAGACCATCGACCACATGTGTGCATTGTAAAGAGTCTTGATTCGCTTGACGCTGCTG | 13700 a.u. |

Sample 4
Target: CCNB2, cyclin fold, Cln2 fusion (human)
Technique: yeast growth competition, sequencing
Sample: yeast
Setting: strong parent motif
Reference: not given
Direction: higher = stronger binding
Starting sequence: E2F1 docking peptide (human); PPVKRRLDFETDH; partner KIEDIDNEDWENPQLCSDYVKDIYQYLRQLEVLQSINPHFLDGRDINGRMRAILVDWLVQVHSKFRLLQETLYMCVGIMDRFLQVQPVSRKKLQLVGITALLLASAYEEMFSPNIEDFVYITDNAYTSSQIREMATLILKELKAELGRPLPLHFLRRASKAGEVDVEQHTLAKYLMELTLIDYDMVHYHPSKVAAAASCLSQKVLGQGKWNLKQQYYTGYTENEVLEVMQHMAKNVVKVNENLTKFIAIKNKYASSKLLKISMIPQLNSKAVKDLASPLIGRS
| Change | normalised enrichment score |
| --- | --- |
| PPVKRRLDQETDH [F9Q] | 0.417 |
| PPVKRRLDFEDDH [T11D] | 4.71 |
| PLVKRRLDFETDH [P2L] | 2.95 |
| PPVKGRLDFETDH [R5G] | 0.56 |
| PPVKPRLDFETDH [R5P] | -0.709 |
| PPVKRRLDWETDH [F9W] | 0.891 |
| PPVDRRLDFETDH [K4D] | 0.306 |
| PPVKRRLDFETSH [D12S] | 3.21 |
| PKVKRRLDFETDH [P2K] | 3.18 |
| PPVPRRLDFETDH [K4P] | 1.04 |
| PPVKRRLVFETDH [D8V] | 2.76 |
| PPVKRKLDFETDH [R6K] | 4.13 |
| PQVKRRLDFETDH [P2Q] | 3.05 |
| PPVKRRLDFEKDH [T11K] | 3.27 |
| PNVKRRLDFETDH [P2N] | 3.1 |
| PPVKRRLDFETNH [D12N] | 3.43 |
| PWVKRRLDFETDH [P2W] | 1.57 |
| PPVARRLDFETDH [K4A] | 3.17 |
| PPVKERLDFETDH [R5E] | -0.00756 |
| PPVKRRLDFEVDH [T11V] | 3.38 |
| PPRKRRLDFETDH [V3R] | 0.403 |

Sample 5
Target: Histone acetyltransferase KAT6A, winged helix 2, GST fusion (KAT6A, Homo sapiens, UniProt Q92794, residues 85-181)
Technique: protein binding microarray
Molecule type: double-stranded DNA, one strand shown
Sample: in vitro
Tested at: not given
Setting: 8-mer, flanks averaged, mean of 2 arrays, mostly near background
Reference: not given
Direction: higher = stronger binding
Target sequence (chain): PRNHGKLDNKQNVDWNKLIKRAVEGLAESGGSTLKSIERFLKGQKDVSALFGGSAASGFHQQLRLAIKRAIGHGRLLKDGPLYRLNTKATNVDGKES
| Strand | E-score |
| --- | --- |
| CGCACGTC | -0.111 |
| AGCCCGCA | 0.0504 |
| GCCCCGGA | 0.213 |
| CTAGACAG | -0.0131 |
| TACGCCCA | 0.0731 |
| CTCCTCCC | 0.197 |
| TCAAAAGA | 0.0635 |
| CTCTAACA | -0.094 |
| AAACGTGA | -0.0627 |
| ATGGAACG | -0.0833 |
| AGGGCACA | 0.114 |
| AAGATAAT | -0.0137 |
| ACAGCTTA | -0.11 |
| GTGCGGCA | 0.102 |
| AGACTTGC | -0.184 |
| GCGTTCCC | -0.0431 |
| CGCTGACA | 0.106 |
| AAGCCCGG | 0.0338 |
| TGACAAAA | 0.0273 |

Sample 6
Target: Prothrombin, mature alpha-thrombin (F2, Homo sapiens, UniProt P00734)
Technique: aptamer microarray, sandwich
Molecule type: DNA with 2'F-ANA
Sample: in vitro
Tested at: 200 nM
Setting: whole 15-mer aptamer, many near background
With: Cy3 exosite-II aptamer, 400 nM
Direction: higher = stronger binding
Strand: GGTTGGTGTGGTTGG
| Modification | mean fluorescence intensity |
| --- | --- |
| 2'F-ANA at 2 3 5 10 11 12 13 14 15 | 49.2 a.u. |
| 2'F-ANA at 1 2 6 13 15 | 112 a.u. |
| 2'F-ANA at 1 3 6 7 11 12 13 14 | 101 a.u. |
| 2'F-ANA at 2 4 5 7 10 12 14 15 | 47.4 a.u. |
| 2'F-ANA at 5 9 10 12 13 15 | 51 a.u. |
| 2'F-ANA at 1 2 5 6 13 14 15 | 55.3 a.u. |
| 2'F-ANA at 5 7 8 12 15 | 274 a.u. |
| 2'F-ANA at 1 8 12 13 15 | 362 a.u. |
| 2'F-ANA at 1 4 6 7 8 12 14 | 57.7 a.u. |
| 2'F-ANA at 1 3 5 6 7 8 9 12 13 14 15 | 51.8 a.u. |
| 2'F-ANA at 1 3 5 7 10 13 | 42.1 a.u. |
| 2'F-ANA at 2 3 6 9 13 15 | 643 a.u. |
| 2'F-ANA at 2 7 9 12 13 15 | 565 a.u. |
| 2'F-ANA at 3 5 6 8 11 13 | 136 a.u. |
| 2'F-ANA at 1 2 7 8 9 10 13 14 15 | 63.5 a.u. |
| 2'F-ANA at 2 4 5 7 8 11 13 15 | 57.7 a.u. |
| 2'F-ANA at 1 3 4 7 8 10 11 13 15 | 58.6 a.u. |
| 2'F-ANA at 2 4 5 6 8 9 10 11 12 | 56.7 a.u. |
| 2'F-ANA at 3 4 5 8 9 11 12 13 15 | 104 a.u. |

For quick reference, copied from above (sample 2):
| Strand | E-score |
| --- | --- |
| GCTAGCGA | -0.156 |
| AGTGCACG | -0.203 |
| ACGCCCGG | -0.31 |
| CAAGCAGA | 0.00187 |
| GTATAAAA | 0.331 |
| CCAGGGGC | -0.425 |
| ATGCGCCC | -0.22 |
| CCAAACTA | 0.0906 |
| GTAAGCGA | 0.0654 |
| GCGAGATA | 0.116 |
